Measured values of several laboratories.
Numbered parts are unrelated; each lists some results of a single study.

Series 1
Target: RNA binding protein fox-1 homolog 2, RRM domain, GST-SBP tag (RBFOX2, Homo sapiens, UniProt O43251-10, residues 100-194)
Technique: RNA Bind-n-Seq
Molecule type: RNA
Matrix: in vitro
Tested at: 365 nM
Notes: natural RNA segment, single round, ends assumed
Reference: no-protein control
Direction: higher = stronger binding
Quantity: RBNS enrichment (R)
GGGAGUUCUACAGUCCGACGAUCCCUUAUGAAACUCCAGCUAUGUAAUAAAAAACUAUACUCUGUGUUCUGUUAAUGCCUCUGAGUGUCCUACCUCCUUGGAGAUGAGAUAGGGAAGGAGCAGGGAUGAGACUUGGAAUUCUCGGGUGCCAA: 1.01
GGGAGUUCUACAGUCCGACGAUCGAAGGUUUAGUUUCCUUGAAGGAAACUACAGAAAAGGAAAGAAGCAGAAUGAGAAAGGAAUGGUACUUAGGUGUUUGGUAUGCUGCUCACGUGAAGUCAGCCCACACCAGUGGAAUUCUCGGGUGCCAA: 1
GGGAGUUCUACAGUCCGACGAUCGUUCCCCUCUUUACCUUCACCAUUCGCUGCUUCUGCCAAGUCUGUGAAGCCGUCCUUUGUAGGAUGUUUCUUGCCACUUACGCUGUACUGUAGUUGCUUAUUCUUUCUGCUGGAAUUCUCGGGUGCCAA: 0.467
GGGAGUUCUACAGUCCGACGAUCCCAGGACACAUUUCCACUAUAAUUUUACAAAGUUAAAUUUAUAAGCUAGCAUUAAGUAAAGUGAAGUCCAGCUCCCUUGCUAAAAAUAACUAGAGGUAAUAAUUGGUAUUUGGAAUUCUCGGGUGCCAA: 0.561
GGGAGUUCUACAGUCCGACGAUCGUACGUCCUGCAUGCACUAACGGUGCAGAACAUGGCAUGGUGACUAGAAAGUAAAACUCCUUUUGAAGUGUCCCAAGGACUGGGUCAGUUAGAACCUGUCUGCCACUAUCUGGAAUUCUCGGGUGCCAA: 0.429
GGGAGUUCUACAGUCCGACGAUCUUUGAAUUCCUCCUCUAUUUAAGAUAUAUACAUGGAAUCGAAGUGUUUAUGUAAUAGUUCUAUCCUUUUGCCUGCAGGUCAGUUGUAAUAAAUCUAGGAUGUGAUGAUGAUGGAAUUCUCGGGUGCCAA: 4.76
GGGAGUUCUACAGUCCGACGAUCAACUCUUUUGAAAUAACUUUGGUGCCCAGGCCAAGUAGAAUGAGAUGAGACUGAGUUUGGCCUCUGGCUCGGUUUCCUUUCUUUGGUCUGAUACUUCAUGUAUUUGAAUAUGGAAUUCUCGGGUGCCAA: 0.555
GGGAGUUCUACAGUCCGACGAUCUGGGGCCAGGGGACCAAGAGUCAGCAAGCAAUAAGACGCCACCCUCACUGUCCUCAGGAGCCAGGCAUCCUCCCUGGGUGCCCACUCUUUGCAUCUGCUUUUCCUGUAAGUGGAAUUCUCGGGUGCCAA: 0.977
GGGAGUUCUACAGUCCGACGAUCCCAAAGGGGACUCGGUUGGGAGAGCCGCUUAGGGGCCAGACCUGGGUCCCCCUGCAGGUCCCCAGGCAGCAGACAAUUCCACCUUCCCUGCCCCAGGACCUUGAGAGACAUGGAAUUCUCGGGUGCCAA: 0.402

Series 2
Target: Prothrombin, mature alpha-thrombin (F2, Homo sapiens, UniProt P00734)
Technique: aptamer microarray, sandwich
Molecule type: DNA with 2'F-ANA
Matrix: in vitro
Tested at: 200 nM
Notes: whole 15-mer aptamer, many near background
Together with: Cy3 exosite-II aptamer, 400 nM
Direction: higher = stronger binding
Quantity: mean fluorescence intensity
Oligonucleotide: GGTTGGTGTGGTTGG
2'F-ANA at 1 3 5 7 8 9 12 13 15: 101 a.u.
2'F-ANA at 1 3 5 6 7 8 9 10 12 14: 43.5 a.u.
2'F-ANA at 3 4 5 6 13: 64.8 a.u.
2'F-ANA at 1 3 7 9 11: 309 a.u.
2'F-ANA at 1 4 6 12 15: 256 a.u.
2'F-ANA at 1 3 5 7 10 11 14: 43.7 a.u.
2'F-ANA at 2 3 5 6 7 9 10 12 13: 53.4 a.u.
2'F-ANA at 6 7 8 12 13: 677 a.u.
2'F-ANA at 3 4 6 10 12 13: 280 a.u.
2'F-ANA at 2 4 7 12 15: 694 a.u.
2'F-ANA at 3 4 7 9 11 13 14: 260 a.u.
2'F-ANA at 1 2 3 5 9 10 14: 45.9 a.u.
2'F-ANA at 5 8 10 12 14: 41.2 a.u.
2'F-ANA at 1 4 5 9 10 12 13: 44.9 a.u.
2'F-ANA at 1 2 7 10 11 14 15: 70 a.u.
2'F-ANA at 2 4 14 15: 107 a.u.
2'F-ANA at 1 3 6 7 8 9 10 11 14 15: 126 a.u.
2'F-ANA at 2 3 4 5 6 7 9 10 13 15: 49.8 a.u.
2'F-ANA at 2 3 4 5 6 7 11 13 14 15: 48.9 a.u.
2'F-ANA at 2 3 6 7 10 12 13 14 15: 275 a.u.
2'F-ANA at 1 3 4 9 10 13 14 15: 58.2 a.u.
2'F-ANA at 2 3 8 10 12 14: 352 a.u.

Series 3
Target: Interferon regulatory factor 5, full length, phosphomimetic (IRF5, Homo sapiens, UniProt Q13568-2, residues 1-514, S451D/S453D/S456D/S462D)
Technique: protein-binding microarray
Molecule type: double-stranded DNA, one strand shown
Matrix: in vitro
Tested at: 940 nM top
Notes: 60-bp whole probe
Together with: salmon DNA 0.4 mg/ml
Reference: random background probes
Direction: higher = stronger binding
Quantity: fitted relative affinity
Constant ends, left off below: GCCTAGCAC … GTCTTGATTCGCTTGACGCTGCTG
TTGGGTCTCCTACTGCTTTAGTGCTAG: 0.357 z-score
ATAAAAATCTTTGTTGGAGGGGTGCTA: 0.55 z-score
TTAGGTATCGGTTTCCGTTAGTGCTAG: 10.4 z-score
GGCGATCTCAGTCTCGAGACGTGCTAG: 0.965 z-score
TTAGAACTGGGGTAACGATTAGTGCTA: -0.167 z-score
GACGATTTCAGTTTGGAGACGTGCTAG: 0.452 z-score
AATTTTTTTTCTAACTAAAAGTGCTAG: 0.226 z-score
CCTTTTATGGTATTTTTTTCGTGCTAG: 1.17 z-score
TTAGGTCTCCGTTTCCTTTAGTGCTAG: 0.551 z-score
GACGATATCGGGAATCGAGACGTGCTA: 0.152 z-score
AATTAGGTTTCACTTTCCAAAGTGCTA: 8.72 z-score
TTAGAACTGAGTCTAGATTAGTGCTAG: -0.285 z-score
TTAGGTATCCGACTGGGTTAGTGCTAG: -0.151 z-score
GACGGTCTCCTTATTCTGACGTGCTAG: 0.503 z-score
ACTTTTTTTAATTGAGAAGCGTGCTAG: 0.5 z-score
TTAGATATCGGGTAGCGATTAGTGCTA: 0.244 z-score
GACGATATCGGGTAACGAGACGTGCTA: -0.052 z-score
TTCATTTACATTTCCAATACGTGCTAG: 1.32 z-score
GACGGACTGGACTACCGGGACGTGCTA: -0.706 z-score
TCATCTTTATGTACTCTCACTGTGCTA: 1.49 z-score
AGGAATCTTGAGTTAGAGACGTGCTAG: -0.316 z-score
GACGGTATCGGGACAGGGGACGTGCTA: 3.17 z-score

Series 4
Target: Centromere-binding protein 1, full length, N-terminal tag (CBF1, Saccharomyces cerevisiae, UniProt P17106, residues 1-351)
UniProt P17106, sequence (whole entry, looked up): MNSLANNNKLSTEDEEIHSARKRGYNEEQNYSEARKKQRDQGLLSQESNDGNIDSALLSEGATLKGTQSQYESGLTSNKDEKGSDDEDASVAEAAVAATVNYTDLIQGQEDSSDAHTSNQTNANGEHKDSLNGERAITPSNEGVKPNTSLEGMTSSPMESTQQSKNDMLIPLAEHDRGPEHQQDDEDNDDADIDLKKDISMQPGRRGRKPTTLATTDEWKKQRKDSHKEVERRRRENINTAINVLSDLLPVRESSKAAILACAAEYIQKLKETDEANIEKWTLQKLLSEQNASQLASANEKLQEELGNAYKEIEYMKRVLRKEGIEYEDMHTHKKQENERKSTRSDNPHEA
Technique: protein-binding microarray
Molecule type: double-stranded DNA, one strand shown
Matrix: in vitro
Tested at: 0.8 µM
Notes: whole 60-bp probe, no competitor
Direction: higher = stronger binding
Quantity: fluorescence intensity
GAATTGTCAGTAAGTCACGTAGACCTGTATCGGTAGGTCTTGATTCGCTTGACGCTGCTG: 3030 a.u.
GAAAGAATAAAAAGTTTAATCACGTTCCCGCTTTAGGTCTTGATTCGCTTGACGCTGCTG: 2090 a.u.
CTAAGGGATGAGCTGAACGTGCAATTGATACCATTCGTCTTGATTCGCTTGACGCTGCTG: 571 a.u.
GAATACTGAACTTGTTTCATGAGACTCATATCCTAGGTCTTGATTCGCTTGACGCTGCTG: 489 a.u.
GAACAGGTATTACGTCAGGTGAAAAAAGCGGCCTAGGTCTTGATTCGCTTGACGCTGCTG: 912 a.u.
GAAGTACGTTTTAACAACGTGAAGCACAACTGTTAGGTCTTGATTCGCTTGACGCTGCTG: 622 a.u.
GAACCCGTGCTAAGGAAGGTGATGAACTTTGGCTAGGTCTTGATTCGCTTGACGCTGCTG: 604 a.u.
GAAAATCACGTGTGCCTGACCACCTTCTCCGAGTAGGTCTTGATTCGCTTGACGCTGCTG: 10800 a.u.
CTAGAAAAATTGCGAGACGTGATTGGTGTATCATTCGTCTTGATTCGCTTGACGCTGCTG: 626 a.u.
GAACAGATAAACTCCCACGTTTATTATCTTTTGTAGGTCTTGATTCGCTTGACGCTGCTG: 564 a.u.
CTAGTCTGTGATGGTGGTGGCACGCGATAGTACTTCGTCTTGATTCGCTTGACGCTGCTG: 701 a.u.
GAAGGAATATACGATGGTGTGAATACTGGTACGTAGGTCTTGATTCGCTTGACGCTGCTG: 540 a.u.
CTATAGGTTTCTGTACACGTTTTTGAATTTTTTTTCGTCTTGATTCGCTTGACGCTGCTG: 681 a.u.
CTACCACCCAGCTATGTCGTCATGACTACAAATTTCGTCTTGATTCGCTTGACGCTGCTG: 625 a.u.
CTAATGCTGAAGTACGTGGTGACGGATATTGGGTTCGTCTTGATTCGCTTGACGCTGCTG: 542 a.u.
GAATAATTCTAGGACCACGTTTTGGGCTTCGTCTAGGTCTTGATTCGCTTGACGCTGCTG: 611 a.u.
CTATTTTTTTCCTCTCACCCGCAAAGCAAAGGGTTCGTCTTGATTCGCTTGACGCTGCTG: 537 a.u.
CTAAAATTAGGAGATCATGAGGGAAAGGTTTAATTCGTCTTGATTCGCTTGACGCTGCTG: 554 a.u.
TGTACGAAGCTATGTTCCGTCACTATAGTAGTTAGGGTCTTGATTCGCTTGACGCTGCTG: 524 a.u.
GAATAACGTTATTATATCATGATGTCCGTCATTTAGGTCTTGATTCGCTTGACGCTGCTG: 516 a.u.
TGTACGAAGCTATGTGGTGTGGTTATAGTAGTTAGGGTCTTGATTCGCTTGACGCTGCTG: 527 a.u.
GAAGAAAGAGCAAGACATCAGGGACTGATGAACTAGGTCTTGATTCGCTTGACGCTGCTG: 538 a.u.
GAAGAAATTAATGATCATGATGAAGTTAATTTTTAGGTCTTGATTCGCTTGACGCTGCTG: 565 a.u.
TGTACGAAGCTATGTAACATGACTATAGTAGTTAGGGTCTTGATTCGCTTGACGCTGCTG: 624 a.u.
GAACAAGCCTCGCTTCACGTGTAACATACACAGTAGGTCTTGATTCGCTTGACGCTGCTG: 2230 a.u.
